# Results gathered from unrelated publications.
# Parts stem from different laboratories: compare values within a part only.

# Study 1
# Target: Interferon regulatory factor 5, full length, phosphomimetic (IRF5, Homo sapiens, UniProt Q13568-2, residues 1-514, K96S/S451D/S453D/S456D/S462D)
# Technique: protein-binding microarray
# Molecule type: double-stranded DNA, one strand shown
# Sample: in vitro
# Concentration: 250 nM
# Setting: 60-bp whole probe
# Together with: salmon DNA 0.4 mg/ml
# Baseline: random background probes
# Direction: higher = stronger binding
Sequence,log fluorescence
GCCTAGCACGACGATTTCGGGTTTCGACACGTGCTAGTCTTGATTCGCTTGACGCTGCTG,5.85 z-score
GCCTAGCACTTAGATTTCAGTTCCGATTCGTGCTAGGTCTTGATTCGCTTGACGCTGCTG,2.87 z-score
GCCTAGCACTTAGATATCGTGTATCGATTAGTGCTAGTCTTGATTCGCTTGACGCTGCTG,3.92 z-score
GCCTAGCACTGTAATGATGTAGGCAAATGGTGCTAGGTCTTGATTCGCTTGACGCTGCTG,0.0558 z-score

# Study 2
# Target: Sal-like protein 4, full length isoform A (SALL4, Homo sapiens, UniProt Q9UJQ4, residues 1-1053)
# Sequence of UniProt Q9UJQ4 (whole entry, looked up): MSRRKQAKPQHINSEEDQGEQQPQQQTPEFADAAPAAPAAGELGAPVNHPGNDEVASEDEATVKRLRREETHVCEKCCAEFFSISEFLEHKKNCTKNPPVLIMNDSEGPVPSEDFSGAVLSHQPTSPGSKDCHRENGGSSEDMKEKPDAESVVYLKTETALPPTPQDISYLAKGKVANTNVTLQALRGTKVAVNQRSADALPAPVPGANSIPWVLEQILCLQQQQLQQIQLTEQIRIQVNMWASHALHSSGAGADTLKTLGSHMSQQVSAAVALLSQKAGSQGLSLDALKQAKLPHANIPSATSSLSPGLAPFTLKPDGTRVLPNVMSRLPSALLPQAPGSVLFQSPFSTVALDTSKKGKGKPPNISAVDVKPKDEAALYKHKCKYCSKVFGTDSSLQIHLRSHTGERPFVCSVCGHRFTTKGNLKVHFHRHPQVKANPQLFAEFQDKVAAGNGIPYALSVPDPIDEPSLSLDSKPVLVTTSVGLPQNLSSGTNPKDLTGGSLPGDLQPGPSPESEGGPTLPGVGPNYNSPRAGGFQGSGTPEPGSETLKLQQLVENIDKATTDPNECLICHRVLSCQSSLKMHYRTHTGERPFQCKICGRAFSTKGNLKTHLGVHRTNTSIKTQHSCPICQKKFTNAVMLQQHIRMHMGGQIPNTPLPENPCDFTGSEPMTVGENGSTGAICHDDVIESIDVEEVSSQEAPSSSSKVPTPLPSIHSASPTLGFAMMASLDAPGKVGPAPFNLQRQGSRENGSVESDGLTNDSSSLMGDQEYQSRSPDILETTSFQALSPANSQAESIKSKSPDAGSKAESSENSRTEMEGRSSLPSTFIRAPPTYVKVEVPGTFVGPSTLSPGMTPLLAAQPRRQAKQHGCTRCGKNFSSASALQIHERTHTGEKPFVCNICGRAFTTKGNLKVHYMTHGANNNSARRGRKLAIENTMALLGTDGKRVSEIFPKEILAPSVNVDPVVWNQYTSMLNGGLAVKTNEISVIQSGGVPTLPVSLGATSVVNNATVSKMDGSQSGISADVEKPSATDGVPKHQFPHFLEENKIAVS
# Technique: universal PBM
# Molecule type: double-stranded DNA, one strand shown
# Sample: in vitro
# Concentration: 600 nM
# Setting: 8-mer, flanks averaged, mean of replicates
# Direction: higher = stronger binding
Sequence,E-score
AGTCGGGA,-0.189
ATAGTGTC,0.0965
GCTTGGAA,-0.103

# Study 3
# Target: Histone acetyltransferase KAT6A, winged helix 2, GST fusion (KAT6A, Homo sapiens, UniProt Q92794, residues 85-181)
# Technique: protein binding microarray
# Molecule type: double-stranded DNA, one strand shown
# Sample: in vitro
# Concentration: not given
# Setting: 8-mer, flanks averaged, mean of 2 arrays, mostly near background
# Baseline: not given
# Direction: higher = stronger binding
# Target sequence (chain): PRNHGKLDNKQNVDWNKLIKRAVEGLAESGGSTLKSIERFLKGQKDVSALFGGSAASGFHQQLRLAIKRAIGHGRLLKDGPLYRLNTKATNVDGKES
Sequence,E-score
GGATGCCA,-0.00624
GCTATGCA,0.138
TCCCACCA,-0.0373
CAGCAAGC,-0.157
GAAGATGA,0.0102
ATTTGCTG,0.163
TTAAACAA,0.0582
CATAACTC,-0.19
GCGAGCCA,0.136

# Other studies, line by line
# Target: RNA binding protein fox-1 homolog 2, RRM domain, GST-SBP tag (RBFOX2, Homo sapiens, UniProt O43251-10, residues 100-194)
# Technique: RNA Bind-n-Seq
# Molecule type: RNA
# Sample: in vitro
# Concentration: 365 nM
# Setting: natural RNA segment, single round, ends assumed
# Baseline: no-protein control
# Direction: higher = stronger binding
# One construct used (chain): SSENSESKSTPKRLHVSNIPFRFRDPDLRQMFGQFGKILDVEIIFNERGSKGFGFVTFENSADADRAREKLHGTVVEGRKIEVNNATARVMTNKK
Sequence,RBNS enrichment (R)
GGGAGUUCUACAGUCCGACGAUCUCGCCACUGCCAAAGACUCCCAGGAAGCCACUAGCAAAUGGAACUCUGUAACCCCAUCAUGACAAGAGUGGCCACUCUCCGCCUGCACAGGGAUGAAAUAGAAAGCCUUAUGGAAUUCUCGGGUGCCAA,0.36
GGGAGUUCUACAGUCCGACGAUCAAGCUGAAGGUGCUUUUUCAUCAGAACCUUAACAUGGCUGUUGAUGGUACCCUGGCUGCAGCCCAGCGGGGGCUGGAGAGGCAGGGGAGGGCAGUGGUCCUUCCAAAUAGUGGAAUUCUCGGGUGCCAA,0.273

# Some of these lines once more (study 3):
Sequence,E-score
GGATGCCA,-0.00624
TTAAACAA,0.0582
